Measurements from different studies.
Parts stem from different laboratories: compare values within a part only. Positions count from the first letter of the parent shown.

Study 1
Target: CREBRF, bZIP domain (human)
Method: DHFR protein complementation
Sample: yeast
Notes: single substitutions, most at no-binding floor
Relative to: wild-type JUN-FOS pair
Direction: higher = stronger binding
Starting sequence: JUN, bZIP domain (human); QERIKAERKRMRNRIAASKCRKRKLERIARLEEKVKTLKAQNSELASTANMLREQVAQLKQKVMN; partner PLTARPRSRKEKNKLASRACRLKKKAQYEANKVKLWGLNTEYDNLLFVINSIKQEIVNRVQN
`L38Q` gave a binding fitness of -1.58 natural log.
The binding fitness of `A49E` is reported as -1.49 natural log.
`I28H` has a binding fitness of -1.42 natural log.
`E44Y` gave a binding fitness of -1.55 natural log.
`K39N` has a binding fitness of -1.44 natural log.
With `T37R` the binding fitness was -1.43 natural log.
`A49G` gave a binding fitness of -1.48 natural log.
For `S47Y`, the binding fitness was -1.27 natural log.

Study 2
Target: Histone acetyltransferase KAT6A, winged helix 2, GST fusion (KAT6A, Homo sapiens, UniProt Q92794, residues 85-181)
Method: protein binding microarray
Form: double-stranded DNA, one strand shown
Sample: in vitro
Concentration: not given
Notes: 8-mer, flanks averaged, mean of 2 arrays, mostly near background
Relative to: not given
Direction: higher = stronger binding
Residues (chain): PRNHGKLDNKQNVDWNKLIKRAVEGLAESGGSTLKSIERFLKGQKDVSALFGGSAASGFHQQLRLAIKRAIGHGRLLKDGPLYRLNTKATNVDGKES
`AATTTAGC` gave an E-score of -0.082.
The E-score of `ACTGTGTG` is reported as -0.148.
`CGTATGAC` has an E-score of 0.0355.
`GATTAATC` has an E-score of -0.0316.
`CTTGACAC` gave an E-score of -0.0327.
With `GTCCTATA` the E-score was -0.274.
For `CCAGGAAA`, the E-score was 0.129.
The E-score of `GCTATTCA` is reported as -0.0761.

Other studies, line by line
P1: viral docking peptide; KKAKRRLFTISDS; partner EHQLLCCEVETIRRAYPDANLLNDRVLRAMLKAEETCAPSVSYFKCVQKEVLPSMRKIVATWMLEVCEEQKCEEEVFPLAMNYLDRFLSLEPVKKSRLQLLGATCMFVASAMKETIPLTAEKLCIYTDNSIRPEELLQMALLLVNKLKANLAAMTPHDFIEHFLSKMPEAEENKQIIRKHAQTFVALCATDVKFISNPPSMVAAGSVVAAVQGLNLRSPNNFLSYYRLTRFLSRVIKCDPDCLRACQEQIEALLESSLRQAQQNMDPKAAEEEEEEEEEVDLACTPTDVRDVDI
`SEC61B (Homo sapiens, UniProt P60468)`: cross-linked residues “P2 to D117” (LRRC59 (Homo sapiens, UniProt Q96AG4); cross-linking MS; cell fractions; with: DMTMM).
`P1 R6A`: “normalised enrichment score” 1.05 (CCND1, cyclin fold, Cln2 fusion (human); yeast growth competition, sequencing; yeast; weak parent motif; relative to: not given, higher = stronger binding).
Under cross-linked residues, `DNAJC8 (Homo sapiens, UniProt O75937)` is recorded as “K183 to K42” (SF3A2 (Homo sapiens, UniProt Q15428); cross-linking MS; cell fractions; with: DSSO).
For `FSAF1 (Homo sapiens, UniProt Q8NDD1)`, cross-linked residues read “Y211 to K49” (DCAF13 (Homo sapiens, UniProt Q9NV06); cross-linking MS; cell fractions; with: DSSO).
`SRP54 (Homo sapiens, UniProt P61011)`: interaction screen “cross-linked” (SRP68 (Homo sapiens, UniProt Q9UHB9); cross-linking MS; hits only).
